Published values collected from several papers.
Parts stem from different laboratories: compare values within a part only.

Study 1 — technique: RNA Bind-n-Seq; molecule type: RNA; medium: in vitro; tested at: 1 µM; notes: whole 134-nt RNA, ends assumed; with: 150 mM KCl; reference: input library; reading: higher = stronger binding; quantity: log2 enrichment
Target: Ras GTPase-activating protein-binding protein 1, C-terminal RGG region (G3BP1, Homo sapiens, UniProt Q13283)
UniProt Q13283, sequence (whole entry, looked up): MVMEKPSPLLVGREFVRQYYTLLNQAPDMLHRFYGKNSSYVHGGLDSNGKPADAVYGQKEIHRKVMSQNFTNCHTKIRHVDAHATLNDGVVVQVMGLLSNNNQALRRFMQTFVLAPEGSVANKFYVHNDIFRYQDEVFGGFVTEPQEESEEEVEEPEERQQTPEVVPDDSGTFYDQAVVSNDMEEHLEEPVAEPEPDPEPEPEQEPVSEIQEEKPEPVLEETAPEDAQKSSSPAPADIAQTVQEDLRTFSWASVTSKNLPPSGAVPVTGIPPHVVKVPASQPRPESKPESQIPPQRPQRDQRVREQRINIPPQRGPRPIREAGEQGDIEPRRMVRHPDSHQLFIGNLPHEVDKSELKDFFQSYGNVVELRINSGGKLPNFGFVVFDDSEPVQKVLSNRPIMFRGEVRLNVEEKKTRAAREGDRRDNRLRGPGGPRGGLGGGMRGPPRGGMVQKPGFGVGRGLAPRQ
Shared flanks, not repeated: GGGAGUUCUACAGUCCGACGAUC … UGGAAUUCUCGGGUGUCAAGG
UCUCCCAUCAAAGGACGUGCACAGCCUUAUGAUCCCAAUUUUUACGAUGAAACCUAUGAUUAUGGUGGUUUUACAAUGAUGUUUGAUGAC: 0.302
UGGCCCUGGUGGCAUGCGGGGAGGAAGAGUUGGCCUCAUGGAUCGUGGUGGUCCCGGUGGAAUGUUCAGAGGUGGCCGUGGUGGAGACAG: 2.03
CACACACAACACGCACCCACACAGACACAGAGGGAAGGGGUUGGGAUGGGGACAGGGUGCACAGCAGGGCGGGGUAGGACCCCAGCCCCU: -0.276
CCUGUGCUACACAUCGUAUGUACCGAAUCGGGAAAAAGGGUUUUUUUGGGUUUUUUUGGGAAAGUAUUAUGUUACGCCGUUCGGAUCUGC: -1.94
CUCAAGUCCUGUGCUACACAUCGUAUGUACCGAAUCGGGUUGGGGUUGGUUGGAAAGUAUUAUGUUACGCCGUUCGGAUCUGCACUUCCA: -0.348
AGUCCUGUGCUACACAUCGUAUGUACCGAAUCGGUUUUGGGGUUUUGGGGUUUUGGGGAAAGUAUUAUGUUACGCCGUUCGGAUCUGCAC: -0.534
UUAUAAUUGAUGAUCAUCCUGAAGUAACAGUAAUUGAAGAUCCCCAGUCAAAUUUGAAUGAUGAUGGUUUUACUGAAGUGGUAUCCAAAA: -1.78
GUCCUGUGCUACACAUCGUAUGUACCGAAUCGGGUUUGGGAAAAAAAGGGUUUUUGGGAAAGUAUUAUGUUACGCCGUUCGGAUCUGCAC: 0.243
CCUCAAGUCCUGUGCUACACAUCGUAUGUACCGAAUCGGCGGGCGGGGCGGGAAAGUAUUAUGUUACGCCGUUCGGAUCUGCACUUCCAG: -0.0559
UCCUGUGCUACACAUCGUAUGUACCGAAUCGGCCCCCCGGGCCCCCCGGCCCCCCGGGGAAAGUAUUAUGUUACGCCGUUCGGAUCUGCA: -1.12
UCCUCAAGUCCUGUGCUACACAUCGUAUGUACCGAAUCGGUGGUGGGGUGGAAAGUAUUAUGUUACGCCGUUCGGAUCUGCACUUCCAGC: -0.692
UCAACAAGAGAUGUUCAAGAACUUUUGACACAAUAUACCAAGUUUGCACAGAUGGUAAAAAAGAUGGGAGGUAUCAAAGGACUUUUCAAA: -0.962
AAGUCCUGUGCUACACAUCGUAUGUACCGAAUCGGAGGUUUUUUUGGUUUUUUUGGAAAGUAUUAUGUUACGCCGUUCGGAUCUGCACUU: -2.08
CAAGUCCUGUGCUACACAUCGUAUGUACCGAAUCGGGUUUGGGGUUUGGGGUUUGGAAAGUAUUAUGUUACGCCGUUCGGAUCUGCACUU: -1.02

Study 2 — technique: universal PBM; molecule type: double-stranded DNA, one strand shown; medium: in vitro; tested at: 600 nM; reading: higher = stronger binding; quantity: E-score
Target: Sal-like protein 4, full length isoform A (SALL4, Homo sapiens, UniProt Q9UJQ4, residues 1-1053)
UniProt Q9UJQ4, sequence (whole entry, looked up): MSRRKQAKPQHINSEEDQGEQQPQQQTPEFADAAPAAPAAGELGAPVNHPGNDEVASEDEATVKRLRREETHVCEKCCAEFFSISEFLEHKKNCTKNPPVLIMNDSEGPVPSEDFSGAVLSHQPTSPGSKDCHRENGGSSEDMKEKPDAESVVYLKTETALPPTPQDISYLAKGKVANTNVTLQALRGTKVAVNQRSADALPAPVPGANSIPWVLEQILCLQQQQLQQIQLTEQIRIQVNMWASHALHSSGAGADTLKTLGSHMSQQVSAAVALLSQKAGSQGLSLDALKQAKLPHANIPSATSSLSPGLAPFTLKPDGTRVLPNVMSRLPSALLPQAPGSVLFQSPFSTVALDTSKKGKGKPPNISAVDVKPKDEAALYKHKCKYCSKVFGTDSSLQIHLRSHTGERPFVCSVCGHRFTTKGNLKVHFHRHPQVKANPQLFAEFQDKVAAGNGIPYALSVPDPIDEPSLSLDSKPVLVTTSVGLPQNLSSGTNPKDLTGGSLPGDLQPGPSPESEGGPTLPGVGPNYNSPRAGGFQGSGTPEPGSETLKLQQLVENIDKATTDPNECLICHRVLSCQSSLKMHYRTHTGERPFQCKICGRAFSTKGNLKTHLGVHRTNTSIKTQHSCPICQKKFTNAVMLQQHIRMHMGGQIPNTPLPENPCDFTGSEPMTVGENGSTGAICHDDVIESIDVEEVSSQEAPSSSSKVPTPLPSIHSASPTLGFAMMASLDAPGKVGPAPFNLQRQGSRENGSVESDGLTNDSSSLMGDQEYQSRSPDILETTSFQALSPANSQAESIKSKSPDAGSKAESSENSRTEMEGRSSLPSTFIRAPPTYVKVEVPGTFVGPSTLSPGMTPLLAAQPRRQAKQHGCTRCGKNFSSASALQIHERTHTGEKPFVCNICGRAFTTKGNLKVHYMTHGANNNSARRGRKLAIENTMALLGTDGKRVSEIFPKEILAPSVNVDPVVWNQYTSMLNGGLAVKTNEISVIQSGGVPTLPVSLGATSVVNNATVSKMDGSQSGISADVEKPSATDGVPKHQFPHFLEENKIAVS
Notes: 8-mer, flanks averaged, mean of replicates
ATGATGAA: 0.274
TCCGTGCA: -0.0576
CTCCGATC: -0.254
CAGGGTAA: 0.0519
CACTTTGA: -0.102
AAATAGGG: 0.0991
AGATGCAA: 0.0907
CCCTGCCC: -0.277
ACATGGTC: -0.118
TCTTACCA: -0.033
GCCGACGA: -0.15
TACAGAAA: 0.237
AGGCAGTG: -0.067
GCACCCGC: -0.131
ATCATGAA: 0.134
ATAGCACG: -0.00328
GCCCCGGA: -0.367
GCGTAGAC: -0.132
CACCTTAC: 0.043
CGGATCCA: -0.143

Study 3 — technique: protein-binding microarray; molecule type: double-stranded DNA, one strand shown; medium: in vitro; tested at: 0.8 µM; notes: whole 60-bp probe, no competitor; reading: higher = stronger binding; quantity: fluorescence intensity; shared flanks, not repeated: … GTCTTGATTCGCTTGACGCTGCTG
Target: Centromere-binding protein 1, full length, N-terminal tag (CBF1, Saccharomyces cerevisiae, UniProt P17106, residues 1-351)
UniProt P17106, sequence (whole entry, looked up): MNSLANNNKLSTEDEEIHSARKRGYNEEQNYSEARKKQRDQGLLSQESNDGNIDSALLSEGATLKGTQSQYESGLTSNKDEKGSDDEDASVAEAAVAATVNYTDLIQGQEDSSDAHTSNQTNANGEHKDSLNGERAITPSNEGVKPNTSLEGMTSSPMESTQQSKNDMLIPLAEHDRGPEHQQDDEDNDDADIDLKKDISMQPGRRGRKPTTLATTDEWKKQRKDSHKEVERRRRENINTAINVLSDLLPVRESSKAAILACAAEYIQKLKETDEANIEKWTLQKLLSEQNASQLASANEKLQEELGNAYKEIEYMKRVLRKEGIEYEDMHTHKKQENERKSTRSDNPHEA
GAAACCCCCAATCCACGTGTGTTTTATACGCTTTAG: 1740 a.u.
CTATCCATACATCATCAGATGAAAAAATCTCGCTTC: 537 a.u.
GAATTCATTGGTCATCACCACTTAAACGATTCGTAG: 600 a.u.
GAAATGGACATTATAAACGTGTGAACATTTCAATAG: 544 a.u.
CCTAACTACTATAAGCACGTCTTATAGCTTCGTACA: 504 a.u.
CTACCTCGGAAAAACCTCCACGTGTTAGGTTATTTC: 7860 a.u.
GAAAGTGCAGCAAAGCAGCTGATGTGCTGCAAGTAG: 623 a.u.
CCTAACTACTATAATCACGACTAATAGCTTCGTACA: 574 a.u.
CTATTATCGTTCTCTGACATCACCCACTCTCTGTTC: 574 a.u.
TGTACGAAGCTATACGTGACTAATATAGTAGTTAGG: 894 a.u.
CTATAAGCATATAATCAGATGAAAAAAGGAAAATTC: 515 a.u.
GAAATTTTTTTTCACCTGTTCATTTTTTTTTTTTAG: 640 a.u.
GAACTTCCTTAGCCTCACGTTTTTTTGTTCGCTTAG: 600 a.u.
GAAGGGCCCCTTAAACACGTTTCATTAGTGTTTTAG: 528 a.u.
CTACTAAAAATGGGTCACGTGATCTATATTCGATTC: 61400 a.u.
GAAATTACTGCACGTCATGTGGGAGGAGGATGTTAG: 1020 a.u.
GAAATGAGAAGAACCCACGAAGAGATCGATATTTAG: 484 a.u.
GAAATCGGTACATCACCCGTGCCAAAATATGTGTAG: 668 a.u.
CTAGTTTCAGCAGCTCTGATGTAGATACACGTATTC: 518 a.u.
CTACTACCGTCAAATATACACGTGTATTCACTGTTC: 4620 a.u.

Study 4 — technique: protein binding microarray; molecule type: double-stranded DNA, one strand shown; medium: in vitro; tested at: not given; reference: not given; reading: higher = stronger binding; quantity: E-score
Target: Histone acetyltransferase KAT6A, both winged helices, GST fusion (KAT6A, Homo sapiens, UniProt Q92794, residues 1-181)
Notes: 8-mer, flanks averaged, mean of 2 arrays, mostly near background
Construct (chain): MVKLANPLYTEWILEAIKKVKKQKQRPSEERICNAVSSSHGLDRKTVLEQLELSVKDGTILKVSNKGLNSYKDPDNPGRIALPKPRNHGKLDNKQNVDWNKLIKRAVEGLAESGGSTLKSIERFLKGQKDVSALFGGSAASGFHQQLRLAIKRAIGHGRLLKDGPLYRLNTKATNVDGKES
AACAAAGG: -0.2
CGGTTCTC: 0.141
AGCAGGTC: -0.108
TCAGCCGA: 0.0576
ATGGGGTC: -0.0695
CGAATTAA: -0.0438
CCCTTCCC: -0.0517
GCCTGTAC: 0.00571
CGACAGTC: -0.121
ACCTCGCG: 0.235
TAATTCCA: -0.161
GATCGAGA: -0.0607
AATAACAA: -0.142
ATGGAACG: -0.0847
ACTTAACC: -0.192
GCGCGCAA: 0.372
ATCATGGA: -0.0845
GCAGTGAA: 0.0553
CACCTTAG: -0.105
ATTCGTGC: -0.0699
AGTTGGTG: -0.133
CGCCGACG: 0.333
CAGGGAGA: -0.146
TAGGGAGA: -0.0724
AGAACGAG: -0.148

Study 5 — technique: RNA Bind-n-Seq; molecule type: RNA; medium: in vitro; tested at: 365 nM; reference: no-protein control; reading: higher = stronger binding; quantity: RBNS enrichment (R)
Target: RNA binding protein fox-1 homolog 2, RRM domain, GST-SBP tag (RBFOX2, Homo sapiens, UniProt O43251-10, residues 100-194)
Notes: natural RNA segment, single round, ends assumed
Shared flanks, not repeated: GGGAGUUCUACAGUCCGACGAUC … UGGAAUUCUCGGGUGCCAA
Residues (chain): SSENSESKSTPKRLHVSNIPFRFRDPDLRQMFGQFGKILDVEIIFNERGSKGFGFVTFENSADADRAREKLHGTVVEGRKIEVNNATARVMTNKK
CUCUUGCCCCUUGGCAUGUACCCCAAGGCCUGAUGGCCACUGGGCUCAGCCUGUCCCCCACUCCUGCCUGCUUCCCGGUGAGCUGCCCCCCACACGUGCAGCCCGGGCUG: 1.19
CUUUUCCAACUUUCGCCUCCGCUAGGAGAUCAGAAAGAAUUCUUGUGACUUCCUGGGCAGCCAUUGAAUUCAUUUUCCAUGAGAAGAUGACAGAGUUAGCCUGUGGCUAU: 0.295
ACCCCAGACCCCCACUCUUCACUGUUGGUGUGAUAGACCUAAGAACCACAUUAGCACCCUGCCAGCCUACCAGCCUCUCUGUGCACAGCUUCUAAUGUUAUGAUCUAGCU: 0.878
CCAGUCCUUUGGGAGCCUGUCAGGAGACAAAGCUCAGGAUGCUGCUUGUGCUAGGAACACACCCUGCCCUCACUGCCCCACCUCCUGGGGCCCCACCGCCAUCGUCAGUC: 0.303
ACACACACACAGCGAUGCAUCUCUCUCUAAAGCUCAGCCACGGCUGCGGCAAGGUCCCAGCGGUCGCUGGGAGACAGAAGGUUUUGUGCCCUGCUGUAUCAUAAAGCACA: 0.398
UUUUUGACCUUUCUUCUCUCAACAGGAACCUGCCUGAGGACACCCUUCUAGAGCAAGGAAUUGACUUUUAGGAGCCGUUCUCCCCACAAGACACCACAUGACAAGGGGUA: 0.342
AGGGAUUCCGAUAUGUCAGGACCUAAAUGGCCUAAGCACCUGUCAAAUUAAAAUUCCAAAAUUCAUUGAAAUCCUAAAGCCUUGAUAUUAUAUUCUUUAUAAGGCGUGUG: 0.408
UUUCUCAGGUUCUUAACAGCCUGUGCAAACUCCCUGACUAGAUGGUCUGUCACUCCUAUCAUUACCUUGCACCCAUCUCUUUAGAUGGCCUCAGCACCUCACUCGUUAUU: 0.973
AGCCGCCCUGGCUAGAGGCCUGCAGUGGAUGAGCGCAAAGUGCCCGGCCACAGCCCCCUCCCUUUAGGCUAAAAUUCUCACCCAAGCUUUCCCACGGGAAGCUCUAGGAC: 0.28
UGGGUAUGUGUAGGUCAAAUCAAAUGACAGAUGAUUUUUUUAAUGUGAAUAAAGUUAUGUUCAGAUAGUUUGUACAGAAAAAAUAAUAAUAAAAUGGAUGCCCUUCAUGU: 0.954
CCAUUGUACAGAGGCCCAGAUUUCUGUAUGUGUCGUGGUCAAUGGCUGGGUUGACAGAGUGGUCUGCCUGUUUGUUGUCUGUGCUCAGCUUGCAGAAGCUGCCAGCUGUG: 0.853
AAUGCCGUCCAGUCUCUCCCAGAUGAUUUUGUAUUUUUAUUUGGGGAGAGGGGGCUGGUUUUUUUUUUUUUUUUAAUUGUCUUCAAAUCAGGAAAGAACCAUGAAAGACU: 0.616

Some of these lines once more (study 5):
CCAGUCCUUUGGGAGCCUGUCAGGAGACAAAGCUCAGGAUGCUGCUUGUGCUAGGAACACACCCUGCCCUCACUGCCCCACCUCCUGGGGCCCCACCGCCAUCGUCAGUC: 0.303
AGGGAUUCCGAUAUGUCAGGACCUAAAUGGCCUAAGCACCUGUCAAAUUAAAAUUCCAAAAUUCAUUGAAAUCCUAAAGCCUUGAUAUUAUAUUCUUUAUAAGGCGUGUG: 0.408
CUCUUGCCCCUUGGCAUGUACCCCAAGGCCUGAUGGCCACUGGGCUCAGCCUGUCCCCCACUCCUGCCUGCUUCCCGGUGAGCUGCCCCCCACACGUGCAGCCCGGGCUG: 1.19
UUUCUCAGGUUCUUAACAGCCUGUGCAAACUCCCUGACUAGAUGGUCUGUCACUCCUAUCAUUACCUUGCACCCAUCUCUUUAGAUGGCCUCAGCACCUCACUCGUUAUU: 0.973
AGCCGCCCUGGCUAGAGGCCUGCAGUGGAUGAGCGCAAAGUGCCCGGCCACAGCCCCCUCCCUUUAGGCUAAAAUUCUCACCCAAGCUUUCCCACGGGAAGCUCUAGGAC: 0.28
AAUGCCGUCCAGUCUCUCCCAGAUGAUUUUGUAUUUUUAUUUGGGGAGAGGGGGCUGGUUUUUUUUUUUUUUUUAAUUGUCUUCAAAUCAGGAAAGAACCAUGAAAGACU: 0.616
ACCCCAGACCCCCACUCUUCACUGUUGGUGUGAUAGACCUAAGAACCACAUUAGCACCCUGCCAGCCUACCAGCCUCUCUGUGCACAGCUUCUAAUGUUAUGAUCUAGCU: 0.878
UUUUUGACCUUUCUUCUCUCAACAGGAACCUGCCUGAGGACACCCUUCUAGAGCAAGGAAUUGACUUUUAGGAGCCGUUCUCCCCACAAGACACCACAUGACAAGGGGUA: 0.342
ACACACACACAGCGAUGCAUCUCUCUCUAAAGCUCAGCCACGGCUGCGGCAAGGUCCCAGCGGUCGCUGGGAGACAGAAGGUUUUGUGCCCUGCUGUAUCAUAAAGCACA: 0.398
CUUUUCCAACUUUCGCCUCCGCUAGGAGAUCAGAAAGAAUUCUUGUGACUUCCUGGGCAGCCAUUGAAUUCAUUUUCCAUGAGAAGAUGACAGAGUUAGCCUGUGGCUAU: 0.295
CCAUUGUACAGAGGCCCAGAUUUCUGUAUGUGUCGUGGUCAAUGGCUGGGUUGACAGAGUGGUCUGCCUGUUUGUUGUCUGUGCUCAGCUUGCAGAAGCUGCCAGCUGUG: 0.853
UGGGUAUGUGUAGGUCAAAUCAAAUGACAGAUGAUUUUUUUAAUGUGAAUAAAGUUAUGUUCAGAUAGUUUGUACAGAAAAAAUAAUAAUAAAAUGGAUGCCCUUCAUGU: 0.954
